# Assay results collected from several papers.
# Numbered parts are unrelated; each lists some results of a single study. Substitutions count along the parent as printed.

# Series 1 — method: DHFR PCA, deep sequencing; matrix: yeast; together with: (+)-ABA 710 µM; relative to: wild-type fitted maximum; direction: higher = stronger binding
# Target: ABI1, truncated, D143A, DHFR fusion (Arabidopsis thaliana)
# Notes: methotrexate growth selection, single substitutions
# Parent: PYL1, truncated, DHFR fusion (Arabidopsis thaliana); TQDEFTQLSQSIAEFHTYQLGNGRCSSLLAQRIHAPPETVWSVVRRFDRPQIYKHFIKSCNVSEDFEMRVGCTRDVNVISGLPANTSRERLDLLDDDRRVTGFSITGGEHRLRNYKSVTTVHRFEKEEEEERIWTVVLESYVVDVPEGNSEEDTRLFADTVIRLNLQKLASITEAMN; partner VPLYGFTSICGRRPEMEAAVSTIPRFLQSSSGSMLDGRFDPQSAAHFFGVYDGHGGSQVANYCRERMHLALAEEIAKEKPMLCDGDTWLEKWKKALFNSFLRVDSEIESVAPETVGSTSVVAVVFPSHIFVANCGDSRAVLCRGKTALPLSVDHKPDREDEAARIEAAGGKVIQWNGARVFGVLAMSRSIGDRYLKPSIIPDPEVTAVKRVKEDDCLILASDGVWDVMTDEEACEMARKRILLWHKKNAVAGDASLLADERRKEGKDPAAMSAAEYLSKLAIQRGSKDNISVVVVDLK
Change,relative binding score
I105E,39.6%
E129G,116%
T39A,99.9%
F47P,7.26%
E125P,110%

# Series 2 — method: protein binding microarray; form: double-stranded DNA, one strand shown; matrix: in vitro; tested at: not given; relative to: not given; direction: higher = stronger binding
# Target: Histone acetyltransferase KAT6A, winged helix 1, GST fusion (KAT6A, Homo sapiens, UniProt Q92794, residues 1-85)
# Notes: 8-mer, flanks averaged, mean of 2 arrays, mostly near background
# Residues (chain): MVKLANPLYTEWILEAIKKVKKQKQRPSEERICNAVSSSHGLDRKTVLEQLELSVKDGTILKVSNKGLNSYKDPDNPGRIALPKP
Oligonucleotide,E-score
CGGGCCCG,0.438
ACTTACTA,-0.136
ATATAAGA,-0.167
GCGGGATA,0.364
CTTTGGCC,0.0197
AGCGCCGA,0.405
CTTCCGAA,0.0101

# Series 3 — target: CCNB3, cyclin fold, Cln2 fusion (human); method: yeast growth competition, sequencing; matrix: yeast; notes: weak parent motif; relative to: not given; direction: higher = stronger binding
# Parent: CDC6 docking peptide (human); TLKGRRLVFDNQL
Change,normalised enrichment score
R6L,0.538
K3M,0.239
T1E,0.619
D10I,0.711
D10Q,0.365
L2K,0.214
N11G,0.507

# Further values, each from its own experiment
Molecule,target,assay,test system,setting,how to read,endpoint,result
"PhoQ, residues 284 288 289 292 302 303 ALASRC","PhoP, residues 12 14 15 18 19 VQGLL (Escherichia coli, UniProt P23836)","Sort-seq, item: YFP reporter",E. coli,"PhoQ-PhoP variant library, together with: 10 µM Mg2+","relative to: high Mg2+ state, higher = stronger signaling",fold induction,12.2

# For quick reference, copied from above (series 3):
Change,normalised enrichment score
D10I,0.711
